Measured values from different studies.
Parts stem from different laboratories: compare values within a part only. Positions count from the first letter of the parent shown.
UniProt Q9LQE8, sequence (whole entry, looked up): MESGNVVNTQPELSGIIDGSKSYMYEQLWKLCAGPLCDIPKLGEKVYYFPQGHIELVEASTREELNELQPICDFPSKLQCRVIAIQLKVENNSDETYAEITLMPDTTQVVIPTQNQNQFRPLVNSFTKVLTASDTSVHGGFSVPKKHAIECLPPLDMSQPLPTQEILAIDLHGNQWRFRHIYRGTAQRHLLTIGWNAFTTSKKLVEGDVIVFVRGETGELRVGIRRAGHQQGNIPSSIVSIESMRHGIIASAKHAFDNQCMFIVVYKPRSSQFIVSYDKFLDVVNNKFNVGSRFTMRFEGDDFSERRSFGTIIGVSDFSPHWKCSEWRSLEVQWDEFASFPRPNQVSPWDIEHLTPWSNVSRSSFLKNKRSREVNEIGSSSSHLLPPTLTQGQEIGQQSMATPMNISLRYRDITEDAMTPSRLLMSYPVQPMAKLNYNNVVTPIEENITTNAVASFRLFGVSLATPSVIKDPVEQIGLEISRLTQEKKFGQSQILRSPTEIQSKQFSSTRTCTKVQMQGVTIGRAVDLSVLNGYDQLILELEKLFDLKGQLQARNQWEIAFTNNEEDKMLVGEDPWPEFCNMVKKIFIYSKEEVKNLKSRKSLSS
UniProt Q9ZPY6, sequence (whole entry, looked up): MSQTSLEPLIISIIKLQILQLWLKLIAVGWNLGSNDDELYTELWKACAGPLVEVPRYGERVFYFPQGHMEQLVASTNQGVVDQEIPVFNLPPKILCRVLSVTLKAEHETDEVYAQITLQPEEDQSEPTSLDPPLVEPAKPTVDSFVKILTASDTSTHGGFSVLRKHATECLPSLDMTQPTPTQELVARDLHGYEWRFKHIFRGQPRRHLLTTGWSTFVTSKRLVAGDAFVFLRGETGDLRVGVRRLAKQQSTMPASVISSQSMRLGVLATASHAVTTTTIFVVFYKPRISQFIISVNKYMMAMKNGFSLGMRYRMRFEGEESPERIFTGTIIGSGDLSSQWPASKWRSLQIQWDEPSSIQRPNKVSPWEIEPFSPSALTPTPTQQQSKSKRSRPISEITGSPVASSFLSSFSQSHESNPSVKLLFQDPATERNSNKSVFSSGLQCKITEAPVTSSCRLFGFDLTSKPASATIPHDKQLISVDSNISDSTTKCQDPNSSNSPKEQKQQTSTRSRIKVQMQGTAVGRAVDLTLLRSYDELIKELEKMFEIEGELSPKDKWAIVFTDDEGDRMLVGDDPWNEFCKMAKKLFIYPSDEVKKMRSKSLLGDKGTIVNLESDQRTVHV
UniProt Q9XED8, sequence (whole entry, looked up): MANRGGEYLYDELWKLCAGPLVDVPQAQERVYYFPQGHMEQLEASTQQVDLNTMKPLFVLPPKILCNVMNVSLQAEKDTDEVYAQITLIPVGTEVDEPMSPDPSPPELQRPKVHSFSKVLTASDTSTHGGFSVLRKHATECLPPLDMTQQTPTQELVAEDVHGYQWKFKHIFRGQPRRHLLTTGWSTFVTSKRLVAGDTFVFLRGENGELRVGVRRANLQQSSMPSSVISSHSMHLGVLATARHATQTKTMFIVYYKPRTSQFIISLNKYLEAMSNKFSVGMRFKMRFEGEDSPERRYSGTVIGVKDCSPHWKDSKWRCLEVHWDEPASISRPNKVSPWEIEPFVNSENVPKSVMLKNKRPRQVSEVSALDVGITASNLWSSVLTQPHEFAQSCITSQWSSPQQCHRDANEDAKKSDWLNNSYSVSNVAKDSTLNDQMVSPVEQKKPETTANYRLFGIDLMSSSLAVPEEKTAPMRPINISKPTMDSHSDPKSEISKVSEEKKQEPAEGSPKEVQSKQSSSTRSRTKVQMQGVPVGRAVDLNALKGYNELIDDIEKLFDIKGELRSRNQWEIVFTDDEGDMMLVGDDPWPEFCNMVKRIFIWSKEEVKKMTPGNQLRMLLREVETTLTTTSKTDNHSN
UniProt P93024, sequence (whole entry, looked up): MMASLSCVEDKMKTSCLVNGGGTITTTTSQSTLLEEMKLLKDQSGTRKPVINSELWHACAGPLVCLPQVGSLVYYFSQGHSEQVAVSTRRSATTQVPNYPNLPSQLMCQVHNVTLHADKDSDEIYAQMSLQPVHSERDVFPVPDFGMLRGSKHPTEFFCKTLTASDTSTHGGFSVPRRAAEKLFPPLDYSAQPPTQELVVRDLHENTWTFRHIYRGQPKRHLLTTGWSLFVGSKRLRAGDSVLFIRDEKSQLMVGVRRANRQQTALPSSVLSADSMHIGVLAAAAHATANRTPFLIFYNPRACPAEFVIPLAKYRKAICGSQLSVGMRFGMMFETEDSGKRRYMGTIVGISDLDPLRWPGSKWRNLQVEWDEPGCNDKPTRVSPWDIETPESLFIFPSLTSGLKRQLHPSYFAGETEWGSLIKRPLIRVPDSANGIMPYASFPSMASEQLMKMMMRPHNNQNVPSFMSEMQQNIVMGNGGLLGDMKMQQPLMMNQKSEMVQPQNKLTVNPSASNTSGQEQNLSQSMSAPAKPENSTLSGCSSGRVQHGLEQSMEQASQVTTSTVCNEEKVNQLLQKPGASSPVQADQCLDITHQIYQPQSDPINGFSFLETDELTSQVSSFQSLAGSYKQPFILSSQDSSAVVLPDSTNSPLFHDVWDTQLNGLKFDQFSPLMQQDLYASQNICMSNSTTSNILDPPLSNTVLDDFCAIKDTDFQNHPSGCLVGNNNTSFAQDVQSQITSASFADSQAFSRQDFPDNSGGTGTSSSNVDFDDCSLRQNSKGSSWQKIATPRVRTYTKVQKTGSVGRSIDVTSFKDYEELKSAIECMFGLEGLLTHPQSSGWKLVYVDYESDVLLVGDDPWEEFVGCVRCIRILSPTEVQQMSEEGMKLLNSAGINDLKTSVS

Sample 1
Target: ABI1, truncated, D143A, DHFR fusion (Arabidopsis thaliana, UniProt P49597)
Technique: DHFR PCA, dose-response
Matrix: yeast
Setting: Hill fit, mean, not affinity
Added: (+)-ABA, dose series
Reading: lower = more sensitive
Starting sequence: PYL1, truncated, DHFR fusion (Arabidopsis thaliana, UniProt Q8VZS8); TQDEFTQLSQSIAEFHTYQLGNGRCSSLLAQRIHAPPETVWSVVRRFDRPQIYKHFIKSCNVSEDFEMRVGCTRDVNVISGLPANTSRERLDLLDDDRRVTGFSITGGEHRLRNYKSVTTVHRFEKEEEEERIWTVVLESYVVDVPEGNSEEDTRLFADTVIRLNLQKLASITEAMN
Change | ABA EC50 [µM]
Q31I | 14.5
C72I | 4.88
D65T | 2.91
R46P | 184
F5M | 2.61
L28R | 17.1
T1D | 1.7
R123V | 14

Sample 2
Target: Interferon regulatory factor 5, full length, phosphomimetic (IRF5, Homo sapiens, UniProt Q13568-2, residues 1-514, K96S/S451D/S453D/S456D/S462D)
Technique: protein-binding microarray
Molecule type: double-stranded DNA, one strand shown
Matrix: in vitro
Tested at: 250 nM
Setting: 60-bp whole probe
Added: salmon DNA 0.4 mg/ml
Reference: random background probes
Reading: higher = stronger binding
Shared flanks, not repeated: GCCTAGCAC … GTCTTGATTCGCTTGACGCTGCTG
Sequence | log fluorescence
ATTGCTTCCTCTTTCACTGCGTGCTAG | 2.38 z-score
AAATTCTATTCTCTCAATTTGTGCTAG | 1.24 z-score
TCCCAATTCTCTTTTCACTTGTGCTAG | 1.22 z-score
ATGACTCTGCCTCTAACTGCGTGCTAG | -0.416 z-score
GAACCTTCAGCTCTAGGTTCGTGCTAG | 0.0145 z-score
GGTCTTCTGGGCTGTTTGGTTGTGCTA | -0.438 z-score
GTTTTTTTCTATATGCAATGGTGCTAG | 2.16 z-score
TTAGGTTTAGGACTGGGTTAGTGCTAG | -0.118 z-score

Sample 3
Molecule: B1 (ARF4 660-788)
Technique: two-hybrid
Reading: higher = firmer interaction
B1: ARF4 660-788 (Arabidopsis thaliana, UniProt Q9ZTX9); chain QSSSKRICTKVHKQGSQVGRAIDLSRLNGYDDLLMELERLFNMEGLLRDPEKGWRILYTDSENDMMVVGDDPWHDFCNVVWKIHLYTKEEVENANDDNKSCLEQAALMMEASKSSSVSQPDSSPTITRV
partner | setting | reference | positive tests
ARF9 519-638 (Arabidopsis thaliana, UniProt Q9XED8) | weak activation fusion | out of 2 tests | 0
ARF14 497-605 (Arabidopsis thaliana, UniProt Q9LQE8) | – | out of 2 tests | 0
ARF5 788-902 (Arabidopsis thaliana, UniProt P93024) | – | out of 2 tests | 0
ARF11 500-622 (Arabidopsis thaliana, UniProt Q9ZPY6) | – | out of 3 tests | 0

Single results of other studies
SMILES | organism | effect on | tested at | time | setting | endpoint | value
CN(C)CC/C=C1/c2ccccc2COc2ccc(CC(=O)O)cc21 | Sarcocystis neurona | parasite growth | 10 µM | 96 h | first screen | inhibition | 11.8%

Excerpt of the above (sample 2):
Sequence | log fluorescence
TTAGGTTTAGGACTGGGTTAGTGCTAG | -0.118 z-score
